Experimental data gathered from unrelated publications.
Several values in a cell are separate wells, animals, samples, runs or records. Numbers after ± are the reported error. In brackets after ≈: the same amount, converted by molar mass.

O=C(Nc1nc2cccc(-c3ccc(CN4CCS(=O)(=O)CC4)cc3)n2n1)C1CC1  treatment-emergent adverse events (refers to: rheumatoid arthritis; rheumatoid arthritis patients; oral, 200 mg once daily, 4 weeks, any relatedness): 0%
Cc1c(C(=O)O)ccc2c3n(nc12)[C@@H]1[C@H](C3)N(CC2CC2)[C@@]2(C(=O)Nc3cc(Cl)ccc32)[C@H]1c1cccc(Cl)c1F  abdominal pain incidence (human patients phase Ia; oral, dose not given, all grades, all patients): 11.1%
COc1cc2[nH]c(C)c(-c3cccnc3)c(=O)c2cc1Cl  kinetic solubility (pH 7.4): ≥ 20 µM
O=C1c2ccccc2C(=O)N1CCCc1nc(-c2cccc([N+](=O)[O-])c2)no1  thermodynamic solubility (aqueous buffer; pH 7.4): < 5.36 µM
Cc1nc2cccc(OCC(C)(C)C(=O)NC(C)C)c2c(N)c1C(=O)O  AUClast ratio (Sprague-Dawley rat, male, plasma; oral, 100 mg/kg, day 7 over day 1, 7-day repeated dosing; baseline: day 7 over day 1): 1.05 ± 0.45
FC(F)(F)c1ccc(CNc2ccc(Cc3c[nH]c4ncc(Cl)cc34)cn2)cn1  treatment-related adverse events (refers to: Vomiting; patients with advanced solid tumours, non-TGCT cohort; oral, 1000 mg/day, any grade): 19%
COc1ncc(-c2nc3c(n2C(C)C)[C@H](c2ccc(Cl)cc2)N(c2cc(Cl)cn(C)c2=O)C3=O)c(OC)n1  AUC(0-last) (LC-MS/MS, noncompartmental; human, plasma; oral, 150 mg, cycle 1 day 8, high-dose, geometric mean): 6320 ng·h/mL
Nc1ccc(C=Cc2ccc([125I])cc2)cc1  storage stability (HPLC; up to 2 months, refrigerated): stable
CCc1cc(C(=O)NC)c2nccc(N3CCc4c(cc(Cn5ccnc5)cc4-c4cn(C)nc4C(F)(F)F)C3=O)c2c1  serum TG level (Sprague Dawley rats; oral, 100 mg/kg twice daily, 7 days): 0.8 ± 0.3 mmol/L
Cc1ccc(Sc2ccccc2N2CCNCC2)c(C)c1  participants with TEAE (refers to: Somnolence; healthy adult men; oral, 40 mg single dose, 10 day): 0%
CCn1cc(C(=O)N2CCOCC2)c(=O)c2cc(NC3Cc4ccccc4C3)cnc21  half-life (human, fed; oral suspension, 600 mg/day twice daily, day 8, arithmetic mean): 5.43 h
CN(CCCN1CCN(C(=O)CN2CCN(CC(=O)[O-])CCN(CC(=O)[O-])CCN(CC(=O)[O-])CC2)CC1)c1ccc2nccc(C(=O)NCC(=O)N3CC(F)(F)C[C@H]3C#N)c2c1.[68Ga+3]  uptake (mouse HT-1080-hFAP and HT-1080 xenografts, femur; intravenous, 500 pmol, 4 h): 0.5 ± 0.1 %IA/g
CCCCC1=NC2(CCCC2)C(=O)N1Cc1ccc(-c2ccccc2S(=O)(=O)Nc2noc(C)c2C)c(COCC)c1  blood-to-plasma ratio (blood and plasma): 0.612
CNCc1ccc(-c2[nH]c3cc(F)cc4c3c2CCNC4=O)cc1  incidence of anaemia (haemoglobin decreased) (human patients; oral, 600 mg twice daily, grade 3): 7.7%
Cc1cccc(CNC(=O)c2cn(CCNC(=O)c3ccccc3S)c3cc4c(cc3c2=O)OC(F)(F)O4)n1  Cmax (Sprague-Dawley rat, male, plasma; intramuscular, 30 mg/kg of parent compound): 11.9 ± 3.71 ng/mL
NS(=O)(=O)c1ccc(CNc2nc(Nc3cccc(NC(=O)N4CCCC4)c3)ncc2Br)cc1  PAMPA permeability (PAMPA; PBS; 5 h, pH 7.4): not detected
O=C1CCc2ccc(OCCCCN3CCN(c4cccc(Cl)c4Cl)CC3)cc2N1  adverse event incidence (refers to: Rigidity; patients, CYP2D6 normal metabolizers; dose not given, long-acting oral or depot): 3.6%
O=C(OC(C(F)(F)F)C(F)(F)F)N1CCN(Cc2cccc(Oc3ccccc3)c2)CC1  k2 (PET blocking study; rhesus monkey, brain Pons; 0.03 mg/kg, compound pretreatment, added: [18F]T-401 tracer): 0.075 min⁻¹
CCCOc1ccc(-c2ccc(C#N)cc2)cc1  median placental accumulation (Sprague-Dawley rat, female, placenta; 1000 ng/mL in perfusate, 50 (unit not given), middle dose, mixture of 21 LCMs): 82.3 ng/g
O=C(O)CCC(=O)O.[2H]C([2H])([2H])Oc1cc(C)c2[nH]ccc2c1CN1CC[C@@H](C2CC2)C[C@H]1c1ccc(C(=O)O)cc1  TEAE T wave abnormality (ECG; healthy Chinese subjects; oral, 300 mg once daily, multiple ascending dose): 0%
O=C(CSc1nnc(-c2ccncc2)o1)Nc1ccc(F)cc1  thermodynamic solubility (aqueous buffer; pH 7.4): 161 µM (≈ 53.3 µg/mL)
CCc1c(-c2ccccc2)c(-c2ccccc2)nn1-c1ccccc1-c1cccc(OCC(=O)O)c1  concentration (Sprague-Dawley rat, small intestine homogenate; oral, 10 mg/kg, 1 h): 5020 ng/mL and 4690 ng/mL
CCCCCNC(=O)N1CCC(CN(Cc2ccc(Cl)cc2)Cc2ccc([N+](=O)[O-])s2)C1 (stereo not shown)  haematocrit (C57BL/6 mice; 100 mg/kg twice daily, 7 days): 36.8 ± 2.7%
CN1C(=O)[C@@H](NC(=O)c2nnc(Cc3ccccc3)[nH]2)COc2cccnc21  medical device site reaction incidence (phase I multiple ascending dose; human, male and female; oral, 100 mg, 14 days): 12.5%
CCO  AUEC(0-4 h) systolic BP (healthy Chinese men; 0.5 g/kg, supine or semi-supine, added: placebo): -11 ± 27.7 h·mmHg
C[C@@]1(c2cc(NC(=O)c3ccc(C#N)cn3)ccc2F)C=CSC(N)=N1  dose-normalised AUC(0-inf) (elderly humans, both sexes, plasma; oral, 10 mg single dose): 104 ng·h/mL
N#Cc1ccc2c(c1)[C@H]1CCCN(C(=O)c3ccc4[nH]cnc4c3)[C@H]1C2  total testosterone level (human females; 240 mg, day 7): 1 nmol/L
CN(C(=O)n1cnc(-c2cccnc2)c1)[C@H]1CC[C@H](O)CC1  concentration (Wistar rat, pons; oral, 10 mg/kg of BIA 10-2474, 4 h, single dose): 32 ± 7.9 ng/g
CC1(C)C(/C=C/C2=C(Cl)C(=C/C=C3\N(CCCCCC(=O)O)c4ccccc4C3(C)C)/CCC2)=[N+](CCCCCC(=O)O)c2ccccc21  molar absorption coefficient (methanol): 232000 M⁻¹ cm⁻¹
COC(=O)c1ccc2c(c1)NC(=O)/C2=C(\Nc1ccc(N(C)C(=O)CN2CCN(C)CC2)cc1)c1ccccc1  AUCinf (healthy volunteers, plasma; oral, 150 mg single dose, alone): 186 ng·h/mL
c1ccc(-c2nc(N3CCCC3c3ccccn3)c3ccccc3n2)nc1 (stereo not shown)  kinetic solubility (Japanese Pharmacopoeia disintegration test solution 2; pH 6.8): 90 µg/mL
COc1cccc(-c2n[nH]c(SCc3ccccn3)n2)c1OC  plasma concentration (Sprague-Dawley rats, both sexes; oral dietary, 30 mg/kg/day, day 90, 0 h): 780 ng/mL
Cn1cc(Nc2nccc(-c3ccc4c(c3)CN(C3COC3)CC[C@H]4NC(=O)c3cn(C(C)(C)C)nn3)n2)cn1  NKT cell count change (human, whole blood; 50 mg twice daily, day 7; baseline: pre-dose baseline): 40.5%
[18F]c1ccc(-c2ccc3c(c2)[nH]c2ccncc23)cn1  SUV (microPET/CT imaging; APP/PS1 mouse, AD model, heart; intravenous, 5 min): 1.33 ± 0.448
C[C@@H](Nc1cc(F)cc(F)c1)c1cc(C(=O)N(C)C)cc2c(=O)cc(N3CCOCC3)oc12  t1/2 geometric mean (human, plasma; oral, 30 mg, day 1 single dose): 2.09 h
Cc1cc(Nc2ncnc3ccc(NC4=NC(C)(C)CO4)cc23)ccc1Oc1ccn2ncnc2c1  %AUCextrap, median (healthy volunteers, plasma; oral, 300 mg, day 1, single dose alone): 0.88%
Cc1ccc(O)c(-n2nc3ccccc3n2)c1  daily dermal exposure dose (human aged 6-11 years; concentration not given, sunscreen, 95th percentile): 4720 ng/kg/day
CCN1/C(=C/C(C)=O)Sc2ccc(F)cc21  mean blood pressure change (cynomolgus monkey; oral, 100 mg/kg, 2 h post-dose; baseline: pre-dose): 96.4 ± 3.4%
COc1ccc2c(c1)CN(C(=O)CCN1CCC(Cc3ccccc3)CC1)CC[S@@+]2[O-]  QTc interval (telemetry; conscious male beagle dogs; intravenous, 2 mg/kg, 1 h): 250 ± 4 ms
NC1(C(=O)N[C@@H](CCO)c2ccc(Cl)cc2)CCN(c2nc[nH]c3nccc2-3)CC1  incidence of Stomatitis (metastatic CRPC patients; 320 mg b.i.d., any grade, treatment-related, added: enzalutamide 160 mg daily): 0%
CCCCc1ccc(-c2ccc(C#N)cc2)cc1  median fetal accumulation (Sprague-Dawley rat, female, fetus; 5000 ng/mL in perfusate, 50 (unit not given), high dose, mixture of 21 LCMs): 1.19 ng/g
CCOc1c([C@H](C)n2nc(C)c3c(N)ncnc32)cc(Cl)c(F)c1[C@@H]1CNC(=O)C1  observations with HR above 100 bpm (ECG; previously treated B-cell malignancy patients; oral, 30 mg once daily, baseline below thresholds): 2.4%
N#C[C@@]1(c2ccc3c(N)ncnn23)O[C@H](CO)[C@@H](O)[C@H]1O  plasma concentration (beagle dog male, plasma; oral capsule, 6.5 mg/kg, 6 h): 3430 nM
CCN1CCN(Cc2ccc(NC(=O)c3ccc(C)c(NC(=O)c4cncc(-c5cccs5)c4)c3)cc2C(F)(F)F)CC1  extrapolated AUC share (C57BL/6 mice, plasma; intraperitoneal, 30 mg/kg): 14%
Cc1ccc([C@@H]2O[C@H](CO)[C@@H](O)[C@H](O)[C@H]2O)cc1Cc1ccc(-c2ccc(F)cc2)s1  urinary potassium excretion change (Japanese type 2 diabetes patients; 100 mg, day 1, 24 h urine collection; baseline: baseline): 8.8 mEq
O=C(COc1ccc(Cl)cc1)NC12CC(c3nnc([C@H]4C[C@@H](OC(F)(F)F)C4)o3)(C1)C2  adverse event incidence (refers to: Fatigue; human; oral, 260 mg once daily, 14 days): 28.6%
COCCOc1cnc2ccn([C@H](C)c3nnc4c(F)cc(-c5cnn(C)c5)cn34)c(=O)c2c1  Cmax (patients, plasma; oral, 25 mg once daily, day 1): 500 ng/mL
CNC(=O)c1cc(Oc2ccc(NC(=O)Nc3cc(C(C)(C)C)nn3-c3ccc4ncccc4c3)c(F)c2)ccn1  patients with musculoskeletal disorder AE (refers to: worst grade 2; human; oral, dose not given, cycles 1 and 2, High AUC(0-4 h) subgroup): 11%
CN(CCC#N)C1CCN(C(=O)Cn2cc(NC(=O)c3cnn4cccnc34)c(-c3cc(Cl)ccc3OC(F)F)n2)CC1  mouthwash deposition (gamma scintigraphy; human; inhalation, 1 mg single dose; baseline: emitted dose): 10.8%
CC(F)(F)c1nc2nc(CO)cc(Nc3ccc(S(F)(F)(F)(F)F)cc3)n2n1  half-life, metabolite (LC-MS/MS; malaria patients, plasma; oral, 400 mg of parent drug): 126 h
Cn1cc([C@H]2C[C@H]3CSC(N)=N[C@@]3(c3ccc(F)cc3F)CO2)cn1  brain concentration (male 129/SVE mouse, brain; subcutaneous, 10 mg/kg, 3 h): 1090 nM
COc1ccccc1-c1nc(N2CCC(c3ccccn3)C2)c2ccccc2n1 (stereo not shown)  kinetic solubility (Japanese Pharmacopoeia disintegration test solution 2; pH 6.8): 12 µg/mL
CNC(=O)c1ccc(-c2cnc3ncc(Cc4ccc5ncccc5c4)n3n2)cc1F  adverse event incidence (phase 1 clinical trial, refers to: non-cardiac chest pain; gastric cancer expansion cohort; oral, 600 mg twice daily, grade 3 or 4): 0%
CCCCOC(=O)N1CCN(C(=O)[C@H](CP(=O)(O)O)NC(=O)c2cc(N3CC[C@H](OC)C3)nc(-c3ccccc3)n2)CC1  change from baseline (refers to: haematocrit; human, blood; 8 mg, 24 h post-dose): -0.001 ± 0.028 L/L
COc1ccnc(C(=O)N[C@@H](CO)C(=O)O[C@@H](C)[C@H](O)[C@@H](Cc2ccccc2)C(=O)O)c1O  storage stability of residues (bovine milk; -18 °C): 3 months
Cc1cc(-c2nccc3c2ccn3CC(=O)Nc2ccc(-c3cnccn3)cn2)ccn1  subjects with blurred vision (human; 20 mg once daily, multiple ascending dose): 0%
NC(=O)c1cnc2[nH]ccc2c1N[C@@H]1[C@@H]2CC3C[C@H]1C[C@@](O)(C3)C2  intercompartmental clearance (healthy human volunteers, plasma; oral, population PK model, bootstrap median): 9.15 L/h
O=c1oc2c(O)c(O)cc3c(=O)oc4c(O)c(O)cc1c4c23  MRT (rat, plasma; oral, 1000 mg/kg extract, possible metabolite or extract component): 4.87 ± 0.48 h

Some of these lines once more:
FC(F)(F)c1ccc(CNc2ccc(Cc3c[nH]c4ncc(Cl)cc34)cn2)cn1  treatment-related adverse events (refers to: Vomiting; patients with advanced solid tumours, non-TGCT cohort; oral, 1000 mg/day, any grade): 19%
COCCOc1cnc2ccn([C@H](C)c3nnc4c(F)cc(-c5cnn(C)c5)cn34)c(=O)c2c1  Cmax (patients, plasma; oral, 25 mg once daily, day 1): 500 ng/mL
Nc1ccc(C=Cc2ccc([125I])cc2)cc1  storage stability (HPLC; up to 2 months, refrigerated): stable
CN(CCC#N)C1CCN(C(=O)Cn2cc(NC(=O)c3cnn4cccnc34)c(-c3cc(Cl)ccc3OC(F)F)n2)CC1  mouthwash deposition (gamma scintigraphy; human; inhalation, 1 mg single dose; baseline: emitted dose): 10.8%
CCn1cc(C(=O)N2CCOCC2)c(=O)c2cc(NC3Cc4ccccc4C3)cnc21  half-life (human, fed; oral suspension, 600 mg/day twice daily, day 8, arithmetic mean): 5.43 h
N#Cc1ccc2c(c1)[C@H]1CCCN(C(=O)c3ccc4[nH]cnc4c3)[C@H]1C2  total testosterone level (human females; 240 mg, day 7): 1 nmol/L
CCO  AUEC(0-4 h) systolic BP (healthy Chinese men; 0.5 g/kg, supine or semi-supine, added: placebo): -11 ± 27.7 h·mmHg
N#C[C@@]1(c2ccc3c(N)ncnn23)O[C@H](CO)[C@@H](O)[C@H]1O  plasma concentration (beagle dog male, plasma; oral capsule, 6.5 mg/kg, 6 h): 3430 nM
